Measured values from different studies.
Every numbered part comes from another study and shows a few of its results, in no order. Values joined by “and” are separate records of one study, mostly repeats; a detail may differ.

Set 1
Compound: Ic1ccc(Nc2nc(NCCN3CCOCC3)nc(N3CCSCC3)n2)cc1
Cell line: Gaucher fibroblasts L444P/L444P
Technique: 4-MUG hydrolysis, cell lysate
Measurement: GCase activity
tested at = 0.1 µM; time = 72 h; reference = vehicle; value = 103%
tested at = 0.1 µM; reference = DMSO; value = 98.7% and 110% and 87.7% and 109%
tested at = 1 µM; reference = DMSO; value = 100% and 98.4% and 88.7% and 103%
tested at = 1 µM; time = 72 h; reference = vehicle; value = 101%
tested at = 10 µM; reference = DMSO; value = 92.5% and 98.9% and 104%

Set 2
Compound: CCn1cnc2c(NCc3nc4cc(Cl)c(Cl)cc4[nH]3)nc(N3CCN(C(C)=O)CC3)nc21
Cell line: MDA-MB-468
Observed: cell viability
Technique: CellCounting-Lite
Temperature: 37 °C
Direction: higher = more viable cells
Measurement: luminescence signal
tested at = 222.2 nM; value = 36800 a.u. and 33100 a.u.
tested at = 0.9145 nM; value = 436000 a.u. and 379000 a.u. and 430000 a.u.
tested at = 24.69 nM; value = 76100 a.u. and 79500 a.u. and 75000 a.u.
tested at = 2.743 nM; value = 334000 a.u. and 350000 a.u. and 333000 a.u.
tested at = 74.07 nM; value = 38100 a.u. and 31800 a.u. and 37700 a.u.

Set 3
Structure (SMILES): Cc1c(NC(=O)c2cccn(-c3ccc(F)cc3)c2=O)ccc(Oc2ccnc(NC(=O)C3CC3)c2)c1C
Target: Receptor-interacting serine/threonine-protein kinase 3 (RIPK3, Homo sapiens, UniProt Q9Y572)
UniProt Q9Y572, sequence (whole entry, looked up): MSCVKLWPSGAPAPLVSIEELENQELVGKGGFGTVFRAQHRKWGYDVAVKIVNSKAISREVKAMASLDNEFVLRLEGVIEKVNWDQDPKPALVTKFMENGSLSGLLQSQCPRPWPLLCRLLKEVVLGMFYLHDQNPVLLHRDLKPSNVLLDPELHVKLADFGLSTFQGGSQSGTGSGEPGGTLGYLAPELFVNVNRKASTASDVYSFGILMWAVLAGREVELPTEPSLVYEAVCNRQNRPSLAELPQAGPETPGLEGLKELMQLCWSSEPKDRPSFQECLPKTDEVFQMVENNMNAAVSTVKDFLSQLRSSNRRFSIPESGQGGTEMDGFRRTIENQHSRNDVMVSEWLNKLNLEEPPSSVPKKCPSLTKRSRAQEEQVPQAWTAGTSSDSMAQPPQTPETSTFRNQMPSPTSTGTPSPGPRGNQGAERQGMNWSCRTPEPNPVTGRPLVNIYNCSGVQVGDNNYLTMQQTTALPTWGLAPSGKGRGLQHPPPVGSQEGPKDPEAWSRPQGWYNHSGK
Observed: kinase activity
Mode: inhibitor
Time: 1 h
Measurement: inhibition
technique = ADP-Glo; tested at = 250 nM; value = 96.8%
technique = ADP-Glo; tested at = 3.906 nM; value = 35.4%
technique = ADP-Glo; tested at = 125 nM; value = 92.8%
technique = ADP-Glo; tested at = 62.5 nM; value = 71.9%
technique = ADP-Glo kinase; tested at = 1000 nM; value = 99.3%

Single results of other studies
SMILES = Cn1cc(-c2cccc(CN3CCC4(CC3)COc3c4ccc4c3CN([C@H]3CCC(=O)NC3=O)C4=O)c2)cn1; host = Crbn I391V mouse, MC-38 tumour; route = oral, daily; dose = 30 mg/kg; setting = animals reaching endpoint; with = isotype control antibody i.p.; measurement = time to tumour volume 2000 mm3; value = 22 days and 15 days and 25 days and 39 days and 33 days and 36 days and 49 days and 19 days
